Measured values of several laboratories.
Parts stem from different laboratories: compare values within a part only.
Chain of UniProt Q13546 (whole entry, looked up): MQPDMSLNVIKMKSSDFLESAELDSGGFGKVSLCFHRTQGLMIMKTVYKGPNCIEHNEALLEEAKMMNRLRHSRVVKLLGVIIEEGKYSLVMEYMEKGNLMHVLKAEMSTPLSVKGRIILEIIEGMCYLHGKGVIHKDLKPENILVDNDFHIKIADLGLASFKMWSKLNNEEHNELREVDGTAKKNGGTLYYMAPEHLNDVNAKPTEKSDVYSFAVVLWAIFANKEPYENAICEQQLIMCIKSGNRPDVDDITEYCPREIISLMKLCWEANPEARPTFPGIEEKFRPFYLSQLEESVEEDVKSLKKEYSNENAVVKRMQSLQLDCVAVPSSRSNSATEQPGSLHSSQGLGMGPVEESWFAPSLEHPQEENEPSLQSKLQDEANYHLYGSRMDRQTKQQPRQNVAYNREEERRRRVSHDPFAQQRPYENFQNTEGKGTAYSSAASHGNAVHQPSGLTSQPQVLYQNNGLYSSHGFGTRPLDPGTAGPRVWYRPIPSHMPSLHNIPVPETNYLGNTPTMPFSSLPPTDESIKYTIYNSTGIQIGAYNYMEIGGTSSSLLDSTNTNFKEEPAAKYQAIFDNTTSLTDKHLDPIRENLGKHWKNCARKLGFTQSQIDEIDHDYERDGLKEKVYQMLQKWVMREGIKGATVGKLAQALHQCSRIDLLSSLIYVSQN
Chain of UniProt P10721 (whole entry, unmodified, looked up): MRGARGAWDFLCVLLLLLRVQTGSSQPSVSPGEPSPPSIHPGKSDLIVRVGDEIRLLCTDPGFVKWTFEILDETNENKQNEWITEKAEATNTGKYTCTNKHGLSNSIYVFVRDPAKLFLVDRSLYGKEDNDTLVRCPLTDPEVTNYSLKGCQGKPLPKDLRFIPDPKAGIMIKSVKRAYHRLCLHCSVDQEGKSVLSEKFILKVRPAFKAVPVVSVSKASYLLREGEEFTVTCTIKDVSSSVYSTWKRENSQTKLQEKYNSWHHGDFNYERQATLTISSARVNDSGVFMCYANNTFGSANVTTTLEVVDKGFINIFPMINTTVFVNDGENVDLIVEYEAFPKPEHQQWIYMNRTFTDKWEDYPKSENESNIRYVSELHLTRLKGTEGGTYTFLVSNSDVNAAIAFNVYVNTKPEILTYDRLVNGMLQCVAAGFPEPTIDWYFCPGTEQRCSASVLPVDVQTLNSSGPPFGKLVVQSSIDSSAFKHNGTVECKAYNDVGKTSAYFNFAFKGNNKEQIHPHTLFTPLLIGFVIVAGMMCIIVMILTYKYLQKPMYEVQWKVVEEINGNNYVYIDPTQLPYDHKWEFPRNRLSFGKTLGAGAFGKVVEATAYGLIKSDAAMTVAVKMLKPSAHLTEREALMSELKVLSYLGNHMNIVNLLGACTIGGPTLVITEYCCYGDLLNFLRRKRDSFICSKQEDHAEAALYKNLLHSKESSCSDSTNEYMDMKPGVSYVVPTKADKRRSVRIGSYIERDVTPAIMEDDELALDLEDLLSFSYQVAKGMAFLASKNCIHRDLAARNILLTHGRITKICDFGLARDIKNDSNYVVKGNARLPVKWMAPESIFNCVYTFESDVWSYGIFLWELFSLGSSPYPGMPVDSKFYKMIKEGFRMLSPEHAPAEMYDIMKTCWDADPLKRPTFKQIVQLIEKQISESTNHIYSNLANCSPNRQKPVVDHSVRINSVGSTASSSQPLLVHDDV
Chain of UniProt P15056 (whole entry, looked up): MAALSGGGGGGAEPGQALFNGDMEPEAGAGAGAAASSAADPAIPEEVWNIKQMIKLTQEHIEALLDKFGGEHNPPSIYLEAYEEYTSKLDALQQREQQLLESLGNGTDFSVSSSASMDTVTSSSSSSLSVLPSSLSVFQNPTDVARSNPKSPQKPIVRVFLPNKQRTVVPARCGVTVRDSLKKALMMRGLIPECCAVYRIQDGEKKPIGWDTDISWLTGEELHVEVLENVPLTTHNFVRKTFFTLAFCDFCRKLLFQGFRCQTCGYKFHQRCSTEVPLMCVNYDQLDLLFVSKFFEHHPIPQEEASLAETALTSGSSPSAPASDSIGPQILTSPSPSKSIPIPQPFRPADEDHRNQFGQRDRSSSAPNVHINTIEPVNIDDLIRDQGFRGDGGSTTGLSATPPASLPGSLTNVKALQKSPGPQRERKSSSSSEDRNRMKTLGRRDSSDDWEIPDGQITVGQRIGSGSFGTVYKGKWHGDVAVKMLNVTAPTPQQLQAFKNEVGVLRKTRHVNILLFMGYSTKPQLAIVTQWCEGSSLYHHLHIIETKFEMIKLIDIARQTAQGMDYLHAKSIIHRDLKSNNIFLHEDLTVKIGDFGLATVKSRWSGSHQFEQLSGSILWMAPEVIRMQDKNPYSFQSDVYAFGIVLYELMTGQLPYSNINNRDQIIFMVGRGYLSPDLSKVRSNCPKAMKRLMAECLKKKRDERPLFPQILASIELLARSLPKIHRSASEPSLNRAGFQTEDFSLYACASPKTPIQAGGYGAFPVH
Chain of UniProt Q07912 (whole entry, looked up): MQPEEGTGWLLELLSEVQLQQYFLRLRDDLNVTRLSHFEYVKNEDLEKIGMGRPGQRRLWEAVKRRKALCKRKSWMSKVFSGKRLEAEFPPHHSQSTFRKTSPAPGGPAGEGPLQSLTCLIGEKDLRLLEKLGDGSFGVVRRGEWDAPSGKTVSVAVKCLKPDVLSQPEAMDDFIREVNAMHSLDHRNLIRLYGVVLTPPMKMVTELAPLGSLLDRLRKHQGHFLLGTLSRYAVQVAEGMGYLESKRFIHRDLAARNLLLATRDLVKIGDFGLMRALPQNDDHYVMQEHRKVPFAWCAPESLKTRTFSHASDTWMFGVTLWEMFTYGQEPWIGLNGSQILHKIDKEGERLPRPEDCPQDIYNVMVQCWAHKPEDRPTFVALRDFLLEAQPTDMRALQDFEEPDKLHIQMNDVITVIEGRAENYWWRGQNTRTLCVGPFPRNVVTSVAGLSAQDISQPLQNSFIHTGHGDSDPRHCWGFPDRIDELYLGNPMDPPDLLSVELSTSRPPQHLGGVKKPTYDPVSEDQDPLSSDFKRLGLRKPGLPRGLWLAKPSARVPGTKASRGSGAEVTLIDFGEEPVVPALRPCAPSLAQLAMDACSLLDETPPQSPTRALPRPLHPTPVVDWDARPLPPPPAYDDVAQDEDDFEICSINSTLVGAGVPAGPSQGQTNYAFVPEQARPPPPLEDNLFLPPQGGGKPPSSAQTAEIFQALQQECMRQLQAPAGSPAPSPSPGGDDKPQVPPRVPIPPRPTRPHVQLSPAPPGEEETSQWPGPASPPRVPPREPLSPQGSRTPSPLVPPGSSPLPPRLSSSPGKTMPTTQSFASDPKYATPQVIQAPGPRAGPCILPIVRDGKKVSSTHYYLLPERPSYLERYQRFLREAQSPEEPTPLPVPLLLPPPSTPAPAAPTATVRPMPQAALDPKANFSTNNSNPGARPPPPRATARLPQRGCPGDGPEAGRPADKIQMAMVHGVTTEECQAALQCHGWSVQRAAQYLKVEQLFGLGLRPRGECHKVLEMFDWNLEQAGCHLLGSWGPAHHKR
Chain of UniProt Q96PN8 (whole entry, looked up): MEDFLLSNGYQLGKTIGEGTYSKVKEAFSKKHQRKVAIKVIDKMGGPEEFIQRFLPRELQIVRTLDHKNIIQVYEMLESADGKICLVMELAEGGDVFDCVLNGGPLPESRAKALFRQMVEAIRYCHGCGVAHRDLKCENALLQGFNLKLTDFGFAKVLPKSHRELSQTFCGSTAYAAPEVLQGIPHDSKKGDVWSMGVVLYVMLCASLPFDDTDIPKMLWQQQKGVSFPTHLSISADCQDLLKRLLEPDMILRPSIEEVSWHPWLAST
Chain of UniProt Q02156 (whole entry, looked up): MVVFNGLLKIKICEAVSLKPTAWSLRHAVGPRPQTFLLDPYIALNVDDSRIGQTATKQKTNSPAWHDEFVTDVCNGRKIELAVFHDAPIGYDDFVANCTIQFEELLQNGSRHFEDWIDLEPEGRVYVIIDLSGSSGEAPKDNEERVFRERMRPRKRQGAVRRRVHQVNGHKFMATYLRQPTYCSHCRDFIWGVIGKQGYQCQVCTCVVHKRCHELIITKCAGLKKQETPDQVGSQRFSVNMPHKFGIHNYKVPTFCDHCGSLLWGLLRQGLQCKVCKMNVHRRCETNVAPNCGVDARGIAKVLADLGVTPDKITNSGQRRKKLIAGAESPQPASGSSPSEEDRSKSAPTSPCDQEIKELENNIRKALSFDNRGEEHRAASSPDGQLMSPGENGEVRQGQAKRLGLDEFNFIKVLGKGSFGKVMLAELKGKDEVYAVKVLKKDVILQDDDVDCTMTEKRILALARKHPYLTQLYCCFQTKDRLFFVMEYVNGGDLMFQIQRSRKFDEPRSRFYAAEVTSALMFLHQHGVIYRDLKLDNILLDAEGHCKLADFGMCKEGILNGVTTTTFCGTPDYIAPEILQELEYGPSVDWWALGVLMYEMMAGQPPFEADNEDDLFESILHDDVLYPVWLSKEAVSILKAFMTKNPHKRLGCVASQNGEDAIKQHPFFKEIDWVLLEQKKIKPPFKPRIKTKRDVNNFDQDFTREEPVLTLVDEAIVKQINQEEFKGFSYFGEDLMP
Chain of UniProt Q13555 (whole entry, looked up): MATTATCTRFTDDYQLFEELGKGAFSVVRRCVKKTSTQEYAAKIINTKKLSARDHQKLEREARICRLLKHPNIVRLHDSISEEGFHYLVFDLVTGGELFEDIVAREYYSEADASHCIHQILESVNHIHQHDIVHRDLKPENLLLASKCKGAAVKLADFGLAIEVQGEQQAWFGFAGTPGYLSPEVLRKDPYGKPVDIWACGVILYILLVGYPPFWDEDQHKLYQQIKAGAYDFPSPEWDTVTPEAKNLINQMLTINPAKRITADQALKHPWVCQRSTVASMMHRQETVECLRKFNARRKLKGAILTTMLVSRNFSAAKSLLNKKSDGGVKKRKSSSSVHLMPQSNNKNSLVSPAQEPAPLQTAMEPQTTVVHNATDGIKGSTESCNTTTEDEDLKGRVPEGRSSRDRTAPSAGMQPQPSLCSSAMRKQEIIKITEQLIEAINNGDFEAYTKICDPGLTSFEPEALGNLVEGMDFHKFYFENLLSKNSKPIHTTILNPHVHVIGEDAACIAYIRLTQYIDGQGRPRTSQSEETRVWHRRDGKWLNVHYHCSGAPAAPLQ

Set 1
Species: mouse
Sample: microsomes or S9
Concentration: 2 µM
Time: 0.5 h
The remaining compound of `C=CCO/N=C/c1cn(CC=C)c2ccc(OC)cc12` is reported as 0.466%.
The remaining compound of `COc1cc(Br)c(S(=O)(=O)NC2CCN(C(C)=O)CC2)cc1OC` is reported as 38.3%.
The remaining compound of `CO[C@H]1C[C@H]2CC(C)(O)[C@@H](/C=C/c3ccc(-c4cccc(F)c4)cn3)[C@@H]2C[C@H]1NC(=O)OC(C)(C)C` (stereo partly shown) is reported as 80.9%.
`Cc1sc2[nH]c(=O)n3nc(-c4ccncc4)nc3c2c1C` has a remaining compound of 19.7%.
With `Cc1ccc(S(=O)(=O)NNc2ccc(S(=O)(=O)N(C(C)C)C(C)C)cn2)c(Cl)c1` the remaining compound was 0%.
`Oc1ccc(C2c3c(-c4ccc(F)cc4)nnc(O)c3Nc3nnnn32)cc1` (stereo not shown) has a remaining compound of 65.3%.
`Cc1ccccc1S(=O)(=O)Nc1ccc2nc(N3CCN(CC(=O)NC(C)(C)C)CC3)cc(C(=O)O)c2c1` has a remaining compound of 86.1%.
For `c1ccc(OCCN2CCCC3(C2)Nc2ccccc2-n2cccc23)cc1` (stereo not shown), the remaining compound was 0.0402%.
`CC(C)(C)OC(=O)N[C@@H](CC(=O)N1CCN(S(C)(=O)=O)CCN1)Cc1cc(F)c(F)cc1F` gave a remaining compound of 22.7%.
For `O=C(Nc1ccccc1)c1cn2c(n1)C(c1ccccc1)N(C(=O)c1ccccc1)CC2` (stereo not shown), the remaining compound was 61.3%.
The remaining compound of `O=C(C1CCCN(S(=O)(=O)c2cc(Cl)ccc2Cl)C1)N1CCCCC1` (stereo not shown) is reported as 1.18%.
For `Cc1cc(N2CCCC2c2cc(C)on2)nc(N)n1` (stereo not shown), the remaining compound was 53.1%.
For `CCC(Oc1ccccc1F)C(=O)Nc1c(C)cccc1C` (stereo not shown), the remaining compound was 0.877%.
With `Clc1nnc(Cl)c2c1ncn2Cc1ccccc1` the remaining compound was 90.7%.
`CCC[C@@H]1CN(C(=O)c2ccc3c(=O)n(C)cnc3c2)C[C@H]1NC(C)=O` gave a remaining compound of 88.7%.
`OC(CN1CCCCCC1)CN(c1ccccc1)c1ccccc1` (stereo not shown) has a remaining compound of 7.8%.
`CN(C)CCN(Cc1ccccc1)C(=O)C(C(=O)c1ccc(F)cc1)n1ccccc1=O` (stereo not shown) gave a remaining compound of 14.9%.
With `Cc1nn(CC(C)C)c2sc(C(=O)N3CCN(CC(=O)NC4CC4)CC3)cc12` the remaining compound was 12.7%.

Set 2
Target: Dual specificity tyrosine-phosphorylation-regulated kinase 1A (DYRK1A, Homo sapiens, UniProt Q13627)
Read-out: enzyme activity
Mode: inhibitor
Concentration: 0.5 µM
Relative to: control
For `Oc1ccc(Nc2nc(-c3ccc(Cl)cc3)cs2)cc1`, the remaining activity was 96.6%.
`CC(C)(C)n1nc(Cc2cccc3ccccc23)c2c(N)ncnc21` gave a remaining activity of 92.5%.
The remaining activity of `O=S(=O)(NCCNC/C=C/c1ccc(Br)cc1)c1cccc2cnccc12` is reported as 98.5%.
`NC(=O)c1ccc(N(C(N)=O)c2c(F)cccc2F)nc1-c1ccc(F)cc1F` has a remaining activity of 98.7%.
The remaining activity of `O=C1Cc2c([nH]c3ccc([N+](=O)[O-])cc23)-c2ccccc2N1` is reported as 86.2%.
For `CC#CC(=O)Nc1cc2c(Nc3ccc(F)c(Cl)c3)ncnc2cn1`, the remaining activity was 96.4%.
The remaining activity of `CC(=O)c1ccc(N2CCOCC2)cc1O` is reported as 98%.
For `N#CC(=C(N)Sc1ccc(N)cc1)c1ccccc1C(F)(F)F`, the remaining activity was 93.9%.
For `CC[n+]1c(/C=C/N(C)c2ccccc2)n(-c2ccccc2)c2ccc(-c3nc4ccccc4s3)cc21`, the remaining activity was 96.7%.
`Nc1ncnc2c1cnn2-c1ccccc1` has a remaining activity of 96.8%.
With `Nc1nccc(-c2c(-c3ccc(F)cc3)ncn2C2CCNCC2)n1` the remaining activity was 96.3%.
For `O=C1NC(=O)C(c2c[nH]c3ccccc23)=C1c1c[nH]c2ccccc12`, the remaining activity was 80.8%.
The remaining activity of `Nc1nc(Nc2ccc(S(N)(=O)=O)cc2)nn1C(=O)c1c(F)cccc1F` is reported as 101%.
For `CSc1nc(-c2ccnc(N[C@@H](C)c3ccccc3)c2)c(-c2ccc(F)cc2)[nH]1` (racemic), the remaining activity was 97.9%.
For `CCc1[nH]c(-c2ccc(OC)cc2)nc1-c1ccncc1`, the remaining activity was 97.7%.
With `Fc1ccc(-c2nc3n(c2-c2ccncc2)CCS3)cc1` the remaining activity was 97.5%.
`COc1ccc(S(=O)(=O)N(CCO)c2ccccc2CN(C)CC=Cc2ccc(Cl)cc2)cc1` has a remaining activity of 102%.
The remaining activity of `Cc1ccc(NC2=CC(=O)c3sc(C)nc3C2=O)cc1` is reported as 103%.
For `Cc1cncc2cccc(S(=O)(=O)N3CCCN(C(=O)CN)C[C@@H]3C)c12`, the remaining activity was 93.1%.
With `Cc1cc(Nc2nc(-c3ccccc3)nc3ccccc23)n[nH]1` the remaining activity was 104%.

Set 3
Structure (SMILES): C[C@@H](c1cccc(C#N)c1)n1cc(Cl)cc(C(N)=O)c1=N
Technique: competition with immobilised ligand
Concentration: 1 µM
Serine/threonine-protein kinase DCLK3 (DCLK3, Homo sapiens, UniProt Q9C098); cell-free assay — remaining binding: 86%.
Serine/threonine-protein kinase BRSK2 (BRSK2, Homo sapiens, UniProt Q8IWQ3); cell-free assay — remaining binding: 95%.
It gave 100% for remaining binding (Calcium/calmodulin-dependent protein kinase type II subunit gamma (CAMK2G, Homo sapiens, UniProt Q13555); cell-free assay).
For Activated CDC42 kinase 1 (TNK2, Homo sapiens, UniProt Q07912); cell-free assay: remaining binding read 95%.
The remaining binding was 100% (Hormonally up-regulated neu tumor-associated kinase (HUNK, Homo sapiens, UniProt P57058); cell-free assay).
For Serine/threonine-protein kinase 16 (STK16, Homo sapiens, UniProt O75716); cell-free assay: remaining binding read 85%.
For Mast/stem cell growth factor receptor Kit (KIT, Homo sapiens, UniProt P10721, D816V); cell-free assay: remaining binding read 94%.
Protein kinase C epsilon type (PRKCE, Homo sapiens, UniProt Q02156); cell-free assay — remaining binding: 89%.
Leucine-rich repeat serine/threonine-protein kinase 2 (LRRK2, Homo sapiens, UniProt Q5S007, G2019S); cell-free assay — remaining binding: 100%.
It gave 100% for remaining binding (Calcium/calmodulin-dependent protein kinase type II subunit delta (CAMK2D, Homo sapiens, UniProt Q13557); cell-free assay).
Calcium/calmodulin-dependent protein kinase type 1G (CAMK1G, Homo sapiens, UniProt Q96NX5); cell-free assay — remaining binding: 100%.
It gave 100% for remaining binding (SRSF protein kinase 3 (SRPK3, Homo sapiens, UniProt Q9UPE1); cell-free assay).
Serine/threonine-protein kinase NLK (NLK, Homo sapiens, UniProt Q9UBE8); cell-free assay — remaining binding: 91%.
The remaining binding was 82% (Calcium/calmodulin-dependent protein kinase type IV (CAMK4, Homo sapiens, UniProt Q16566); cell-free assay).
The remaining binding was 96% (5'-AMP-activated protein kinase catalytic subunit alpha-2 (PRKAA2, Homo sapiens, UniProt P54646); cell-free assay).
The remaining binding was 96% (Serine/threonine-protein kinase B-raf (BRAF, Homo sapiens, UniProt P15056); cell-free assay).
The remaining binding was 100% (Receptor-interacting serine/threonine-protein kinase 1 (RIPK1, Homo sapiens, UniProt Q13546); cell-free assay).
It gave 100% for remaining binding (Dual specificity protein kinase CLK3 (CLK3, Homo sapiens, UniProt P49761); cell-free assay).
It gave 93% for remaining binding (Tyrosine-protein kinase JAK1, JH2 (JAK1, Homo sapiens, UniProt P23458); cell-free assay).
The remaining binding was 100% (Macrophage-stimulating protein receptor (MST1R, Homo sapiens, UniProt Q04912); cell-free assay).
It gave 93% for remaining binding (Phosphatidylinositol 4,5-bisphosphate 3-kinase catalytic subunit beta isoform (PIK3CB, Homo sapiens, UniProt P42338); cell-free assay).
Bone morphogenetic protein receptor type-1A (BMPR1A, Homo sapiens, UniProt P36894); binding — remaining binding: 100%.
It gave 100% for remaining binding (Testis-specific serine/threonine-protein kinase 3 (TSSK3, Homo sapiens, UniProt Q96PN8); cell-free assay).
For Dual specificity protein kinase TTK (TTK, Homo sapiens, UniProt P33981); cell-free assay: remaining binding read 100%.
It gave 100% for remaining binding (Cyclin-dependent kinase 14 (CDK14, Homo sapiens, UniProt O94921); cell-free assay).

Set 4
Organism: Sarcocystis neurona
Read-out: parasite growth
Concentration: 10 µM
Setting: secondary screen
`COC(=O)Nc1nc2cc(C(=O)c3ccc(F)cc3)ccc2[nH]1` has an inhibition of 7.4%.
With `NS(=O)(=O)c1cc2c(cc1C(F)(F)F)NCNS2(=O)=O` the inhibition was -28.3%.
With `COc1ccc(CC(C)NCC(O)c2ccc(O)c(NC=O)c2)cc1.COc1ccc(CC(C)NCC(O)c2ccc(O)c(NC=O)c2)cc1.O.O.O=C(O)/C=C/C(=O)O` (stereo not shown) the inhibition was -38.6%.
The inhibition of `C[C@]12C=CC(=O)C=C1CC[C@@H]1[C@@H]2[C@@H](O)C[C@@]2(C)[C@H]1CC[C@]2(O)C(=O)CO` is reported as -28%.
`C[C@H]1C[C@@H]2[C@H]([C@@H](O)C[C@@]3(C)[C@H]2CC[C@]3(O)C(=O)CO)[C@@]2(C)C=CC(=O)C=C12` has an inhibition of -26.4%.
The inhibition of `Cc1c2oc3c(C)ccc(C(=O)N[C@@H]4C(=O)N[C@H](C(C)C)C(=O)N5CCC[C@H]5C(=O)N(C)CC(=O)N(C)[C@@H](C(C)C)C(=O)O[C@@H]4C)c3nc-2c(C(=O)N[C@@H]2C(=O)N[C@H](C(C)C)C(=O)N3CCC[C@H]3C(=O)N(C)CC(=O)N(C)[C@@H](C(C)C)C(=O)O[C@@H]2C)c(N)c1=O` is reported as -12.6%.
The inhibition of `CC(=O)N1CCN(c2ccc(OCC3COC(Cn4ccnc4)(c4ccc(Cl)cc4Cl)O3)cc2)CC1` (stereo not shown) is reported as -4.5%.
`CC1=C(C/C=C(\C)CCC[C@H](C)CCC[C@H](C)CCCC(C)C)C(=O)c2ccccc2C1=O` has an inhibition of -33.7%.
With `Cc1ncc([N+](=O)[O-])n1CC(C)O` (stereo not shown) the inhibition was -23%.
`CO[C@H]1/C=C/O[C@@]2(C)Oc3c(C)c(O)c4c(O)c(c(/C=N/N5CCN(C)CC5)c(O)c4c3C2=O)NC(=O)/C(C)=C\C=C\[C@H](C)[C@H](O)[C@@H](C)[C@@H](O)[C@@H](C)[C@H](OC(C)=O)[C@@H]1C` has an inhibition of -50%.
For `O=C(O)C[C@H](O)C[C@H](O)/C=C/c1c(C2CC2)nc2ccccc2c1-c1ccc(F)cc1`, the inhibition was -8.4%.
The inhibition of `C#C[C@]1(O)CC[C@H]2[C@@H]3CCc4cc(OC)ccc4[C@H]3CC[C@@]21C` is reported as -84%.
`Cl.NC[C@H](O)c1ccc(O)c(O)c1` gave an inhibition of -36.4%.
`CC(CCc1ccccc1)NCC(O)c1ccc(O)c(C(N)=O)c1` (stereo not shown) gave an inhibition of -47.1%.
`O=C1NC(=O)C(c2ccccc2)(c2ccccc2)N1` gave an inhibition of -5.6%.
The inhibition of `CN1CCN(c2c(F)cc3c(=O)c(C(=O)O)cn4c3c2SCC4)CC1.Cl` is reported as -24.7%.
`CN(C)CCOC(c1ccccc1)c1ccccc1` has an inhibition of -59.9%.
For `COc1ccccc1OCCNCC(O)COc1cccc2[nH]c3ccccc3c12` (stereo not shown), the inhibition was 17.7%.
With `CC(c1cc2ccccc2s1)N(O)C(N)=O` (stereo not shown) the inhibition was -66.1%.

Repeated from above (set 2):
For `CSc1nc(-c2ccnc(N[C@@H](C)c3ccccc3)c2)c(-c2ccc(F)cc2)[nH]1` (racemic), the remaining activity was 97.9%.
For `CCc1[nH]c(-c2ccc(OC)cc2)nc1-c1ccncc1`, the remaining activity was 97.7%.
With `Fc1ccc(-c2nc3n(c2-c2ccncc2)CCS3)cc1` the remaining activity was 97.5%.
`COc1ccc(S(=O)(=O)N(CCO)c2ccccc2CN(C)CC=Cc2ccc(Cl)cc2)cc1` has a remaining activity of 102%.
The remaining activity of `Cc1ccc(NC2=CC(=O)c3sc(C)nc3C2=O)cc1` is reported as 103%.
For `Cc1cncc2cccc(S(=O)(=O)N3CCCN(C(=O)CN)C[C@@H]3C)c12`, the remaining activity was 93.1%.
